Assay results gathered from unrelated publications.
Lines come from different studies, so protocols differ. Several values in a cell are separate wells, animals, samples, runs or records. Numbers after ± are the reported error.
Genome polyprotein NS2B-NS3 protease: Genome polyprotein, NS2B-NS3 protease (dengue virus type 2, UniProt P29990)

Under “ferric reducing power”, `CC(=O)[O-].O.O.O.O.[Co+2].[O-]c1ccc(Br)cc1C=NCCN1CCOCC1` is recorded as 26.4% (FRAP; 120 µM).
Under “log2 fold change”, `COC1CN([C@H]2CC[C@H]([C@@]3(C)Oc4c(Cl)cc(C(=O)NCc5c(SC)cc(C)[nH]c5=O)c(C)c4O3)CC2)C1` is recorded as 3.42 (RNA-seq, refers to: RHBDF1; human, whole blood; dose not given, 24 h; relative to: pretreatment baseline).
For `CC(C)c1ccc(N(C)c2ccc3c(c2)OCC[C@H]3CNc2cnccc2C(=O)O)cc1`, the IC50 was ≥ 10 µM (KG-1; cell growth or viability, ATP luminescence; 7 days).
For `Nc1ncc(-c2cc(-c3cnn(CC(F)(F)F)c3)ncc2F)nc1C(=O)NC1CNCC(F)C1` (stereo not drawn), the remaining binding was 67% (CAMK1B; KINOMEscan competition binding; 1 µM; relative to: DMSO control).
The EC50 of `CC(C)(C)c1cc(-c2ccc3cc4ccccc4nc3n2)nc(-c2ccc3cc4ccccc4nc3n2)c1.[Cl-].[Cl-].[Ru+2].c1ccc2cc3nc4c5cccnc5c5ncccc5c4nc3cc2c1` is reported as 50.7 µM (B16-F10; cytotoxicity, resazurin; dark).
Under “log2 fold change”, `Cc1ncsc1-c1ccc(C(C)NC(=O)C2CC(O)CN2C(=O)C(NC(=O)CCCCCCCCCCN2CCCC(Nc3ncc(Cl)c(Nc4ccccc4S(=O)(=O)C(C)C)n3)C2)C(C)(C)C)cc1` (stereo not drawn) is recorded as -1.18 (22Rv1; RNA-seq, refers to: SLITRK3 mRNA; concentration not given; relative to: DMSO).
The EdU-positive cells of `CC(=O)NCC(=O)N[C@@H](Cc1ccccc1)C(=O)N[C@@H](Cc1ccccc1)C(=O)N[C@@H](Cc1ccc(O)cc1)C(=O)NCC(=O)N[C@@H](Cc1ccc(O)cc1)C(=O)NCC(=O)N[C@@H](CO)C(=O)N[C@@H](CO)C(=O)N[C@@H](CO)C(=O)N[C@@H](CCCNC(=N)N)C(=O)N[C@@H](CCCNC(=N)N)C(=O)N[C@@H](C)C(=O)N1CCC[C@H]1C(=O)N[C@@H](CCC(N)=O)C(=O)N[C@H](C(=O)O)[C@@H](C)O` is reported as 26.5% (mouse dermal papilla cells; 100 nM, 48 h).
`Cc1cc(C(=O)Nc2cccc(C(N)=O)c2)n(Cc2ccccc2)n1` has an EC50 of 21 µM (Genome polyprotein NS2B-NS3 protease; reporter gene; HeLa).
With `CCN(CC)CC(=O)Nc1cccc(-n2cc(-c3ccc4ccc(-c5cn(-c6cccc(NC(=O)CN(CC)CC)c6)nn5)cc4c3)nn2)c1` the fold regulation was -1.44 (RCC4; PCR array, refers to: PDGFA; 5 x IC50, 6 h, normoxia; relative to: untreated).
`CO[C@@H]1[C@@H](OC(N)=O)[C@@H](O)[C@H](Oc2ccc3c(O)c(NC(=O)c4ccc(O)c(CC=C(C)C)c4)c(=O)oc3c2C)OC1(C)C` has a colony count of 0.1 (DLD-1 BRCA2-/-; 250 µM, replicate 2).
For `C[C@@H]1Cc2c([nH]c3ccccc23)[C@@H](c2c(F)cc(/C=C/C(=O)O)cc2F)N1C12CC(C1)C2`, “log2 fold change” read -1.45 (MCF7; RNA-seq, refers to: RERG mRNA; 1 µM, 24 h, E2-induced gene; relative to: DMSO vehicle).
For `COC(=O)[C@H](C)NC(=O)[C@H](C)NC(=O)c1csc(-c2cccnc2)n1`, the EC50 was > 30 µM (NCI-H358; cell viability).
With `CNS(=O)(=O)Nc1nccc(Cc2c(C)c3ccc(Oc4ncccc4F)cc3oc2=O)c1F` the IC50 was > 1 µM (TK; cell viability, CellTiter-Glo; 7 days).
`O=C(Nc1ccc(CNc2ncccn2)cc1)c1cc(-c2ccccc2)n(-c2ccccc2)n1` has an EC50 of 34 µM (Genome polyprotein NS2B-NS3 protease; reporter gene; HeLa).
Under “early apoptotic cells”, `Cc1nc(Nc2ncc(C(=O)Nc3c(C)cccc3Cl)s2)cc(N2CCN(C(=O)CN)CC2)n1` is recorded as 40.1% and 43.7% and 44.8% (KU812; flow cytometry; concentration not given, 24 h).
The EC50 of `CC(C)(C)c1cc(-c2ccc3cccnc3n2)nc(-c2ccc3cccnc3n2)c1.COc1ccncc1.[Cl-].[Cl-].[Ru+2].c1ccc2cc3nc4c5cccnc5c5ncccc5c4nc3cc2c1` is reported as 1.22 ± 0.01 µM (B16-F10; cell viability; light 633 nm, 100 J/cm2).
With `COC(=O)c1cc(NC2=NC(=O)C(=Cc3ccc(C)cc3)S2)ccc1OC(C)=O` the metabolite level was -0.55 fold change (MCF7; GC-MS, refers to: Guanosine; 1 µM; relative to: DMSO).
With `Cc1ccncc1.[Cl-].[Cl-].[Ru+2].c1cc(-c2ccc3cccnc3n2)nc(-c2ccc3cccnc3n2)c1.c1ccc2cc3nc4c5cccnc5c5ncccc5c4nc3cc2c1` the EC50 was 2.14 µM (B16-F10; resazurin; added: light 733 nm, 9 mW, 100 J/cm2).
For `C=CC(=O)Nc1cccc(Cn2ncc3cnc(Nc4cnn(CCOC)c4)nc32)c1`, the binding was 100% (human MRCKB; KINOMEscan; 100 nM; relative to: control).
Under “cells in G0/G1 phase”, `CSC(=NN=C(C)c1ccc(S(=O)(=O)N2CCC(C)CC2)cc1)N(C)C` is recorded as 46.3% (HCT-116; flow cytometry; 3.66 µM (IC50), 72 h).
For `C[n+]1ccc(/C=N/NC(=O)c2cccc(C(=O)N/N=C/c3cc[n+](C)cc3)n2)cc1`, the ΔTm was 8.5 ± 1 °C (telomeric G4 DNA hybrid-2; FRET melting; 1 µM, DNA 0.2 µM).
For `CN1CCCNC(=O)c2cccc(c2)C(=O)NCCCN(C)CCCNc2cccc3c2C(=O)c2cccc(c2C3=O)NCCC1`, “log2 fold change” read -1.18 (SAS; RNA-Seq, refers to: WWC2 mRNA; 1 µM, 6 h; relative to: untreated cells).
The fold change of `N#Cc1cccc(/C=C/C(=O)c2ccc(O)cc2)c1` is reported as 0.055 (U-87 MG; refers to: ABT1; concentration not given; relative to: untreated).
For `O=C(CCCCCOc1ccc2ccccc2c1)N[C@@H](CO)C[C@@H](O)c1ccc(-c2ccccc2)cc1`, the ceramide level was 2040 pmol/sample and 2240 pmol/sample (HeLa; CERT activity, HPLC-MS/MS lipidomics, refers to: ceramide 22; 1 µM, 24 h, not cell-number normalised).
For `CCNc1cc2c(cc1C)C1(c3cc(C)c(NCC)cc3O2)c2ccccc2C(=O)N1N=Cc1c[c-]c(-c2ccccn2)cc1.Cc1c(C)c(-c2ccc(-c3ccccc3)cc2)[c-](C)c1C.[Cl-].[Ir+3]`, “early apoptotic cells” read 11 ± 0.13% (A549; annexin V/PI flow cytometry; 3.0×IC50, 24 h).
For `CCOc1cncc(-c2ccc(NC(=O)C3(c4ccnc(NS(=O)(=O)C5CC5)n4)CCOCC3)nc2)n1`, the IC50 was 5.83 µM (OVCAR-4; cell proliferation, CellTiter-Glo; 72 h).
`CC(=O)Oc1ccccc1C(=O)[Se]CC(=O)Nc1cccc(C(F)(F)F)c1` gave a GI50 of 2.71 µM (NCI60 breast subpanel; NCI60 five-dose screen).
`COc1ccccc1-c1ccncc1C(=O)Nc1nnc(OCc2ccc(Cl)cc2)s1` gave a colony count of 58 and 54 and 55 and 48 and 62 and 52 (DLD-1 BRCA2-/-; 0.06 µM, single replicate).
`O=C(C[Se]C(=O)c1ccc2ccccc2n1)Nc1cccc(C(F)(F)F)c1` gave a GI50 of 2.06 µM (NCI60 breast subpanel; NCI60 five-dose screen).
The mRNA level of `CCCCCCCCCCCCCCCC(=O)OCC(CSC[C@H](N)C(=O)N[C@@H](CO)C(=O)N[C@@H](CCCCN)C(=O)N[C@@H](CCCCN)C(=O)N[C@@H](CCCCN)C(=O)N[C@@H](CCCCN)C(=O)NCCCCCC(=O)N[C@@H](CCCCN)C(=O)N[C@@H](CC(C)C)C(=O)N[C@H](C(=O)N[C@@H](Cc1ccccc1)C(=O)N[C@@H](Cc1ccccc1)C(=O)N[C@@H](Cc1ccc2ccccc2c1)C(=O)O)C(C)C)OC(=O)CCCCCCCCCCCCCCC` (stereo partly drawn) is reported as 321 FPKM and 336 FPKM (BV-2; RNA-seq, refers to: Tnf; concentration not given).
`C[n+]1ccc(/C=N/NC(=O)c2ccc3ccc(C(=O)N/N=C/c4cc[n+](C)cc4)nc3n2)cc1` gave a ΔTm of 8.8 ± 0.4 °C (telomeric G4 DNA hybrid-2; FRET melting; 1 µM, DNA 0.2 µM, added: duplex DNA competitor 10 µM).
For `C=CC(=O)N1CCCC(n2c(=O)c3ncccc3n(Cc3ccc(Oc4ccccc4)cc3)c2=O)C1` (stereo not drawn), “log2 fold change” read -0.279 (Rec1; refers to: BID; concentration not given; relative to: untreated).
Under “fold change in expression”, `Cn1ncc2cc(-c3cncc(Cl)c3N3CCC4(CCNC4=O)CC3)ccc21` is recorded as 1.04 (LS174T; microarray, refers to: ADA; concentration not given, 4 h; relative to: untreated cells).

Excerpt of the above:
For `Nc1ncc(-c2cc(-c3cnn(CC(F)(F)F)c3)ncc2F)nc1C(=O)NC1CNCC(F)C1` (stereo not drawn), the remaining binding was 67% (CAMK1B; KINOMEscan competition binding; 1 µM; relative to: DMSO control).
Under “early apoptotic cells”, `Cc1nc(Nc2ncc(C(=O)Nc3c(C)cccc3Cl)s2)cc(N2CCN(C(=O)CN)CC2)n1` is recorded as 40.1% and 43.7% and 44.8% (KU812; flow cytometry; concentration not given, 24 h).
Under “cells in G0/G1 phase”, `CSC(=NN=C(C)c1ccc(S(=O)(=O)N2CCC(C)CC2)cc1)N(C)C` is recorded as 46.3% (HCT-116; flow cytometry; 3.66 µM (IC50), 72 h).
